Published values gathered from unrelated publications.
± gives the spread as reported.
CDK2 with cyclin A: Cyclin-dependent kinase 2, with cyclin A (CDK2, Homo sapiens, UniProt P24941)
TP53 M133L/N239Y/N268D/V203A/Y220C DNA-binding domain: Cellular tumor antigen p53, DNA-binding domain (TP53, Homo sapiens, UniProt P04637, M133L/N239Y/N268D/V203A/Y220C)
Sequence of UniProt Q14416 (whole entry, looked up): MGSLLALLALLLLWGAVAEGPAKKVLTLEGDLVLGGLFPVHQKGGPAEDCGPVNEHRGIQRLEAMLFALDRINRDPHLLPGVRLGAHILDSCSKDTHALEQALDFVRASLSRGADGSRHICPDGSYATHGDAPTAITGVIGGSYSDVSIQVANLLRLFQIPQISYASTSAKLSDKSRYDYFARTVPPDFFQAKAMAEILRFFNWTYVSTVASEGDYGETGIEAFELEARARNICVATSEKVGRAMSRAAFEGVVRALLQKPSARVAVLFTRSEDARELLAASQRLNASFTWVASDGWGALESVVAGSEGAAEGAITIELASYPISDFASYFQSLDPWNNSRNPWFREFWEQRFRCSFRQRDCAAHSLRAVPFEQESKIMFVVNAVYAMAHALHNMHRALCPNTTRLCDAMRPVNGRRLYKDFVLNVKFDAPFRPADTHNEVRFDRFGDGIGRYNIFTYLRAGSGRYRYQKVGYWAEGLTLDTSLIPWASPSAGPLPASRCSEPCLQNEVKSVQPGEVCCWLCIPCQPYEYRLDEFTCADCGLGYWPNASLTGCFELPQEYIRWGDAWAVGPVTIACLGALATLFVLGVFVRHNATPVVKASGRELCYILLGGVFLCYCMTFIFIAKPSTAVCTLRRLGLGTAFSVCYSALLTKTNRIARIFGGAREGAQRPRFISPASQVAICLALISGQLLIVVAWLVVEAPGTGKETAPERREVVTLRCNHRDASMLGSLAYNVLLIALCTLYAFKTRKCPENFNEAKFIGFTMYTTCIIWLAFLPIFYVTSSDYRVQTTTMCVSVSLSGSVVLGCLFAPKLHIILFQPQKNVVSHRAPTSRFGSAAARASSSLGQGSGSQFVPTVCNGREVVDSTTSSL

Structure (SMILES) | target or system | assay | system | conditions | endpoint | result
Oc1ccccc1C1=NN(c2ccccc2)C(c2ccc(C(F)(F)F)cc2)C1 (centres unmarked) | HeLa | cell growth or viability, MTT | – | 72 h | EC50 | > 500 µM
O=C(O)COc1ccc(Br)cc1C=NNC(=O)Cc1ccccc1 (mixture of isomers) | – | – | mouse, serum | oral, 100 mg/kg, 48 h | creatinine | 0.61 ± 0.12 mg/dL
COc1ccc(CNc2ccc(-c3ccn4c(CC5CC5)nnc4c3C(F)(F)F)cc2F)cn1 | – | – | rat liver microsomes | 5 µM, 15 min | compound metabolized | 93%
Cc1cccc(-c2ccc3nc(NC(=O)C4CCCO4)nn3c2)c1 (centres unmarked) | CDK2 with cyclin A | enzyme activity, inhibitor | – | – | IC50 | > 100 µM
Cc1cc(C#N)cnc1F | TP53 M133L/N239Y/N268D/V203A/Y220C DNA-binding domain | DSF | – | 1 mM, 24 h, 20 °C | delta Tm | no effect
Cc1cccc(-c2ccc3nc(NC(=O)CCc4ccccc4)nn3c2)c1 | CDK2 with cyclin A | enzyme activity, inhibitor | – | – | IC50 | > 100 µM
FC(F)(F)c1c(-c2ccc(N3CCNCC3)c(Cl)c2)ccn2c(CC3CC3)nnc12 | GRM2 (Homo sapiens, UniProt Q14416) | GTPγS binding, positive allosteric modulator | – | added: EC20 glutamate | EC50 | 0.131 µM
Cc1nc(C#N)cnc1Cl | TP53 M133L/N239Y/N268D/V203A/Y220C DNA-binding domain | DSF | – | 1 mM, 4 h, 20 °C | delta Tm | 4.43 °C

Some of these lines once more:
Structure (SMILES) | target or system | assay | system | conditions | endpoint | result
Cc1cc(C#N)cnc1F | TP53 M133L/N239Y/N268D/V203A/Y220C DNA-binding domain | DSF | – | 1 mM, 24 h, 20 °C | delta Tm | no effect
